# Experimental data of several laboratories.
# Compare with care: the assays were run in different laboratories. Values joined by “and” are separate records of one study, mostly repeats; a detail may differ. ± marks the error that the study gave.
# pyrD: Dihydroorotate dehydrogenase (quinone) (pyrD, Acinetobacter baumannii, UniProt B7GZW7)
# AKR1B1: Aldo-keto reductase family 1 member B1 (AKR1B1, Homo sapiens, UniProt P15121)
# SLC6A6 G62A: Sodium- and chloride-dependent taurine transporter (SLC6A6, Homo sapiens, UniProt P31641, G62A)
# Kir3.1/Kir3.4: Kir3.1/Kir3.4 (Homo sapiens, UniProt P48544+P48549)
# T1: ssDNA, aptamer; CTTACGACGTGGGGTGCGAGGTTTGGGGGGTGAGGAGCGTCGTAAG
# T2: riboswitch RNA yjdF aptamer domain (Bacillus subtilis); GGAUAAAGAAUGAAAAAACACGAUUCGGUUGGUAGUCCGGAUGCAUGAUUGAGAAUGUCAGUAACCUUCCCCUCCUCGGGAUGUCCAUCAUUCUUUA
Structure (SMILES),target,test,test system,conditions,how to read,measurement,value
Nc1nc(=O)n([C@H]2C[C@H](O)[C@@H](CO)O2)cc1CCN(CC[C@H](N)C(=O)O)C[C@H]1O[C@@H](n2cnc3c(N)ncnc32)[C@H](O)[C@@H]1O,"DNMT1 (Homo sapiens, UniProt P26358)",radiometric [3H]-SAM,,"concentration not given, together with: SAM, poly(dI-dC)",,inhibition type,inhibited
O=C(CCCCCCC(=O)Nc1ccccc1)NO,"HDAC8 (Homo sapiens, UniProt Q9BY41)",ITC,triethanolamine buffer,pH 7.5,,TΔS,0.08 kcal/mol
CC1(C)CC[C@]2(C(=O)O)CC[C@]3(C)C(=CC[C@@H]4[C@@]5(C)C[C@@H](O)[C@H](OC(=O)/C=C/c6ccc(O)cc6)C(C)(C)[C@@H]5CC[C@]43C)[C@@H]2C1 (relative stereo),"Presenilin-1, N-terminal fragment (PSEN1, Homo sapiens, UniProt P49768)","S1 subsite probe binding, competitor, item: PS1 labelled by GY-4",HeLa membranes,,,photoaffinity labelling,inhibited
CCS(=O)(=O)N1CC(CC#N)(n2cc(-c3ncnc4[nH]ccc34)cn2)C1,"ORM1 (Homo sapiens, UniProt P02763)",fluorescence quenching,,308 K,,bimolecular quenching constant,4.12e+12 ± 8.5e+11 M⁻¹ s⁻¹
Nc1nc2c(ncn2[C@@H]2O[C@H](COP(=O)(O)O)[C@@H](O)[C@H]2O)c(=O)[nH]1,"GUK1 (Homo sapiens, UniProt Q16774, R41A)","enzyme activity, NADH-coupled",,2000 µM,,reaction rate,1.52 s⁻¹ and 1.17 s⁻¹ and 1.15 s⁻¹
COCCC(=O)N1CCC(Oc2ccccc2)C1 (stereo not drawn),"Protein transport protein Sec31A (SEC31A, Homo sapiens, UniProt O94979)","binding, affinity selection mass spectrometry",,,relative to: other proteins in batch,log fold enrichment,0.000284
O=c1nc(SCc2cc(F)cc(C(F)(F)F)c2)nc(SCc2ccc3sccc3c2)[nH]1,"TOP2A (Homo sapiens, UniProt P11388)",DNA cleavage,,"31.25 µM, replicate 2",,linear DNA,6.6%
CC(=C/C(=O)O)/C=C/C=C(\C)C1C=C2C(C)(C)CCCC2(C)O1 (stereo not drawn),"Rhodopsin (RHO, Homo sapiens, UniProt P08100, E181K)","immunostaining, item: opsin",COS-7 transfected,"0.10 µM, unit not given",relative to: surface over total stained cells,plasma membrane localization,0
NS(=O)(=O)NCCNc1nonc1C(=NO)Nc1ccc(F)c(Br)c1,"IDO1 (Homo sapiens, UniProt P14902)",nanoDSF,1% DMSO,"50 µM, SHG1-labelled protein, no DTT",,inflection temperature,65.3 ± 0.4 °C
CC(=O)N[C@H](C(=O)N[C@H](C(=O)N[C@@H](Cc1ccccc1)C(=O)N[C@H](C(=O)N[C@@H](CO)C(=O)N[C@@H](Cc1c[nH]c2ccccc12)C(=O)N[C@@H](CCC(=O)O)C(=O)N[C@@H](CCC(=O)O)C(=O)N[C@@H](Cc1ccc(O)cc1)C(=O)N[C@@H](CC(C)C)C(=O)N[C@@H](CC(=O)O)C(=O)N[C@@H](Cc1c[nH]c2ccccc12)C(=O)N[C@H](C(N)=O)C(C)C)[C@@H](C)O)C(C)C)[C@@H](C)O,"PCSK9 (Homo sapiens, UniProt Q8NBP7)","binding, SPR",,"156 nM to 5 µM, 20 °C",,koff,0.151 s⁻¹
CSc1nc2nc(C)cc(Nc3cc(F)c(C(F)(F)F)c(F)c3)n2n1,pyrD,"enzyme activity, inhibitor, colorimetric HTS, item: DCIP reduction",,3 µM,direction not given,robust Z-score,24.2
Nc1ncnc2c1ncn2[C@@H]1O[C@H](COP(=O)(O)OP(=O)(O)OP(=O)(O)O)[C@@H](O)[C@H]1O,"P2X purinoceptor 7 (P2rx7, Rattus norvegicus, UniProt Q64663, I214A/Q143A)","ion current, agonist, two-electrode voltage clamp",Xenopus laevis oocytes,900 µM,relative to: highest concentration response,normalized current,0.88 and 0.94 and 0.96
Cc1ccc(/C=C2\SC(=O)N(CC(=O)c3ccc([N+](=O)[O-])cc3)C2=O)cc1,AKR1B1,"enzyme activity, inhibitor",,,,Hill slope,-0.694
CCCCC[C@H](O)/C=C/[C@H]1[C@H](O)CC(=O)[C@@H]1C/C=C\CCCC(=O)O,"PTGER1 (Homo sapiens, UniProt P34995, F334L/G92S/P39S)","IP1 accumulation, agonist",AD293,1 h,relative to: wild type receptor,Emax,103 ± 3.17%
Nc1ncnc2c1ncn2[C@@H]1O[C@H](COP(=O)(O)OP(=O)(O)OP(=O)(O)O)[C@@H](O)[C@H]1O,"T1, ssDNA, aptamer",ITC,,,,Kd,1130 nM
O=[N+]([O-])c1cc(C(F)(F)F)ccc1NCc1ccsc1,"Endothelial PAS domain-containing protein 1, PAS-B domain (EPAS1, Homo sapiens, UniProt Q99814, N288A)",ZZ-exchange NMR,,25 °C,,koff,1.45 ± 0.05 s⁻¹
Nc1ncnc2c1ncn2[C@@H]1O[C@H](COP(=O)(O)CP(=O)(O)OP(=O)(O)O)[C@@H](O)[C@H]1O,"P2X purinoceptor 1 (P2RX1, Homo sapiens, UniProt P51575, S286A)",calcium influx,,10 µM,relative to: ionomycin response,calcium influx,81.8% and 90.8% and 66.1% and 92.1%
NC/C(=C\F)COc1cccc(Cn2c(=S)[nH]c(=O)c3[nH]cnc32)c1,"CACNA1C (Homo sapiens, UniProt Q13936)","peak ion current, inhibitor, automated patch clamp",,"10 µM, pulse 1",,inhibition,0.5%
NCCCC(=O)O,SLC6A6 G62A,"binding, microscale thermophoresis",,"15.6 µM, room temperature, together with: 50 nM labelled protein",higher = more binding,normalised MST signal,0.053
O=C(COP(=O)(O)O)[C@@H](O)[C@H](O)[C@H](O)COP(=O)(O)O,"Phosphoglycerate mutase 1 (Homo sapiens, UniProt P18669)",,,"0.03906 mM, unit not given",relative to: activity at 10 mM set to 100,enzyme activity,32.2 and 27.6 and 25
CC(C)C[C@@H](N)C(=O)Nc1ccc2ccccc2c1,rat aminopeptidase III,substrate,,"concentration not given, pH 7.0",,hydrolysis,inactive
CC(=O)Nc1ccc(O)cc1,"BRD4 (Homo sapiens, UniProt O60885)","19F NMR, item: tyrosine 119",,1470 µM,relative to: free protein,chemical shift change,0.053 ppm
Cc1cc(Nc2ccc(C(C)(C)C)cc2)n2ncnc2n1,pyrD,"enzyme activity, inhibitor, colorimetric HTS, item: DCIP reduction",,3 µM,direction not given,robust Z-score,22.7
S=c1[nH]nc(-c2ccccn2)o1,"P2X purinoceptor 4 (P2RX4, Homo sapiens, UniProt Q99571)",calcium mobilization,MCF7 stably transfected,"100 µM, together with: ATP 100 µM",,fluorescence increase,82.4 ± 0.54%
O=C1S/C(=C\c2ccc(F)cc2)C(=O)N1Cc1nc2ccccc2s1,AKR1B1,"enzyme activity, inhibitor",,,,log IC50,2.52 log nM
C=CC(=O)N1CCC(COCC(=O)N2CCN(c3nc(-c4cnc(N)nc4C(F)F)nc(N4CCOC[C@@H]4C)n3)CC2)CC1,"PNCK (Homo sapiens, UniProt Q6P2M8)",KINOMEscan,,1 µM,relative to: DMSO control,remaining binding,97%
C=C(c1ccc(Nc2cc(C)nc3nc(C(C)(F)F)nn23)cc1)C(F)(F)F,pyrD,"enzyme activity, inhibitor, colorimetric HTS, item: DCIP reduction",,3 µM,direction not given,robust Z-score,14.8
Nc1ncnc2c1ncn2[C@@H]1O[C@H](COP(=O)(O)OP(=O)(O)O)[C@@H](O)[C@H]1O,"GUK1 (Homo sapiens, UniProt Q16774)","binding, isothermal titration calorimetry",,"molar ratio 0.4975, fitted curve",,ΔH,-2.5 kcal/mol
O=C(O)C1CCCNC1 (stereo not drawn),SLC6A6 G62A,"binding, microscale thermophoresis",,"15.6 µM, room temperature, together with: 50 nM labelled protein",higher = more binding,normalised MST signal,-0.0657
CCc1cc(NC(=O)COc2ccc(C(F)(F)F)cc2C(F)(F)F)n(CC(F)(F)F)n1,Kir3.1/Kir3.4,"thallium flux, activator",HEK293,,relative to: standard compound,Emax,84%
O=C(O)c1ccc(C(=O)O)c(-c2c3ccc(=O)cc-3oc3cc(O)ccc23)c1,"SLC22A11 (Homo sapiens, UniProt Q9NSA0)",substrate,CHO cells expressing human OAT4,"5 min, pH 7.4",,Km,325 ± 222 µM
"COc1cc(F)cc2c(N3CCN4c5ccccc5OC[C@@H]4C3)c(C#N)nnc12 (single isomer, unassigned)","Grm7 (Rattus norvegicus, UniProt P35400)",positive allosteric modulator,cell-based,together with: L-AP4 EC20,relative to: L-AP4 maximum,maximal response,59%
N=C(N)c1ccc(-c2cc3ccc(C(=N)N)cc3[nH]2)cc1,"T2, riboswitch RNA yjdF aptamer domain (Bacillus subtilis)",fluorescence titration,,,,Kd,4.5 nM
N#Cc1ccc2c(-c3ccncc3)c(-c3ccc(F)cc3)nn2c1,"Cyclin-dependent kinase 1 (CDC28, Candida albicans, UniProt P43063)","kinase binding, competitor, MIB/MS competition, item: CDC28",Candida albicans cell lysate,1 µM,relative to: DMSO,log2 fold change,0.0493
N#Cc1ccsc1NC(=O)COc1cccc(Cl)c1Cl,Kir3.1/Kir3.4,"activator, thallium flux",HEK293,concentration not given,,activity,inactive
COc1cc(/C=C/c2ccc(O)cc2)cc(OC)c1,"O-methyltransferase (Sorghum bicolor, UniProt A0A1B6PFV1)",ITC,,"concentration not given, together with: SAH+",,binding stoichiometry,1.02 ± 0.006
CC/C=C(\C)C=O,"Enoyl-ACP reductase (Thermus thermophilus, UniProt P83818)","substrate, biocatalytic transformation",,"pH 7, 30 °C, aerobic, together with: NADH",,conversion,19%
N[C@@H](CC(=O)O)C(=O)Nc1ccc2ccccc2c1,rat aminopeptidase III,substrate,,"concentration not given, pH 7.0",,hydrolysis,inactive
CCc1cc(NC(=O)COc2cccc(Cl)c2Cl)n(C2CCC(F)(F)CC2)n1,Kir3.1/Kir3.4,"thallium flux, activator",HEK293,,relative to: standard compound,Emax,62%
CC1=NN(c2ccc(F)cc2)C(=O)C1=NNc1ccc(S(N)(=O)=O)cc1,bovine α-glucosidase,"enzyme activity, inhibitor, glucose oxidase",,"50 µg/mL, together with: maltose",,inhibition,37.5%
C[C@@H](c1ccc(-n2cnc3c(N)ncnc32)cc1)N1CCc2nn(C)c(Cc3ccccc3)c2C1=O,"PKMYT1 (Homo sapiens, UniProt Q99640)",KINOMEscan,,0.1 µM,relative to: DMSO control,remaining binding,76%
CC[C@H](C)[C@@H]1NC(=O)[C@H](C)NC(=O)[C@H]([C@@H](C)CC)NC(=O)[C@H](CCC(N)=O)NC(=O)[C@H](C)NC(=O)[C@H](CCCNC(=N)N)NC(=O)[C@H](C(C)C)NC(=O)[C@H](CC(C)C)NC(=O)[C@H](CCC(=O)O)NC(=O)[C@H](CCCNC(=N)N)NC(=O)CNC(=O)[C@@H](NC(=O)[C@H](CC(C)C)NC(=O)[C@H](CCCCN)NC(=O)[C@@H](NC(=O)[C@@H](NC(=O)[C@H](CCC(=O)O)NC(=O)[C@H](CCC(=O)O)NC(=O)[C@H](CCSC)NC(=O)[C@H](Cc2c[nH]c3ccccc23)NC(=O)[C@H](CO)NC(=O)[C@@H](N)CC(=O)O)C(C)C)[C@@H](C)CC)CSSC[C@@H]2NC(=O)[C@@H](NC(=O)[C@H](CCCCN)NC(=O)[C@H](CC(N)=O)NC(=O)[C@H](C)NC(=O)[C@H](CC(C)C)NC(=O)[C@H](C)NC(=O)[C@H](CO)NC(=O)[C@H](Cc3ccc(O)cc3)NC(=O)[C@H](CC(C)C)NC(=O)[C@H](CCC(N)=O)NC(=O)c3ccc(-c4c5ccc(=[N+](C)C)cc-5oc5cc(N(C)C)ccc45)c(C(=O)[O-])c3)CSSC[C@H](NC(=O)CNC(=O)[C@H](C(C)C)NC(=O)[C@H](Cc3c[nH]cn3)NC2=O)C(=O)N[C@@H]([C@@H](C)O)C(=O)N[C@@H](CCCCN)C(=O)N[C@@H](CCCNC(=N)N)C(=O)N[C@@H](CO)C(=O)N[C@@H](CC(C)C)C(=O)N[C@@H](C)C(=O)N[C@@H](CCCNC(=N)N)C(=O)N[C@@H](Cc2ccccc2)C(=O)N[C@H](C(=O)O)CSSC[C@@H](C(=O)NCC(=O)N[C@@H](CCSC)C(=O)N[C@@H](CO)C(=O)N[C@H](C(=O)N[C@@H](Cc2c[nH]c3ccccc23)C(=O)N[C@@H](CO)C(=O)O)[C@@H](C)O)NC1=O,"Relaxin receptor 1 (RXFP1, Homo sapiens, UniProt Q9HBX9)","binding, NanoBRET",,"concentration not given, together with: relaxin 1 µM",,fast dissociation fraction,20.1%
COc1cc(-c2cc(C(C)=O)n3ccccc23)cc(OC)c1Cn1ccnc1,"CREBBP (Homo sapiens, UniProt Q92793)",,,,,ΔTm,2.5 °C
CCOc1nc2nc(C)cc(Nc3cc(F)c(C(F)(F)F)c(F)c3)n2n1,pyrD,"enzyme activity, inhibitor, colorimetric HTS, item: DCIP reduction",,3 µM,direction not given,robust Z-score,18.7
CC(C)C[C@H](N)C(=O)O,"snf (Aquifex aeolicus, UniProt O67854, L400A)",scintillation proximity,,10 nM protein,,Bmax,5260 ± 67 cpm/pmol LeuT
